Published values collected from several papers.
Each line is one published result; not all experiments were run side by side. ± marks the error that the study gave.

With CCOC(=O)C(CC)NC(=O)CN1C(=O)S/C(=C\c2ccc(C)cc2)C1=O (stereo not drawn) the IC50 was > 59 µM (Trypanosoma equiperdum; cell viability; IVM-t1; 72 h).
CC(C)=CCC/C(C)=C/CNCCNC1C2CC3CC(C2)CC1(O)C3 (stereo not drawn) gave an IC50 of 14 µM (Mycolicibacterium smegmatis; microbial growth).
With CCCCn1c2ccc([N+](=O)[O-])cc2c(=O)n1Cc1ccccc1 the IC50 was 0.6 µM (Leishmania amazonensis; parasite growth, resazurin; 72 h, promastigote).
O=[N+]([O-])c1ccc(/C=N/N=C/c2ccccc2)s1 has an IC50 of 0.33 ± 0.09 µM (Trypanosoma equiperdum; parasite growth, CellTiter-Glo; IVM-t1 bloodstream form; 72 h).
The IC50 of N#C/C=C/C(=O)Oc1ccc(Br)cc1 is reported as 18.1 µM (Leishmania amazonensis; parasite growth, resazurin; mouse Macrophage; 24 h, intracellular, amastigote).
With O=[N+]([O-])c1ccc(/C=N/N=C/c2ccc(Br)cc2)o1 the IC50 was 0.71 ± 0.18 µM (Trypanosoma equiperdum; parasite growth, CellTiter-Glo; IVM-t1 bloodstream form; 72 h).
With COc1cc(CNC(=O)C[C@H](C)CCC=C(C)C)ccc1OCc1cn(-c2ccccc2)nn1 the growth percent was 120% (HOP-62; SRB; 10 µM, 48 h).
With CC(=O)OCCn1c2ccc([N+](=O)[O-])cc2c(=O)n1Cc1ccccc1 the IC50 was 0.46 µM (Leishmania amazonensis; parasite growth, imaging; mouse Peritoneal macrophage; 48 h, intracellular, amastigote).
With COC1C=COC2(C)Oc3c(C)c(O)c4c(c3C2=O)C2=NC3(CCN(CC(C)C)CC3)NC2=C(NC(=O)C(C)=CC=CC(C)C(O)C(C)C(O)C(C)C(OC(=O)c2cccnc2)C1C)C4=O (stereo not drawn) the IC50 was 0.031 µM (Mycobacteroides abscessus; ATCC 19977; CAMHB).
CCOC(=O)C(CC)NC(=O)CN1C(=O)S/C(=C\c2ccc([N+](=O)[O-])cc2)C1=O (stereo not drawn) gave an IC50 of > 66 µM (Trypanosoma equiperdum; cell viability; IVM-t1; 72 h).
O=[N+]([O-])/C=C/c1ccco1 gave an IC50 of 4.7 µM (Leishmania amazonensis; parasite growth; 72 h, promastigote).
For Cc1nc(C)c(C=[N+]([O-])C(C)(C)C)nc1C, “increase in protein level” read 31.7% (Western blot, measured: TFAM; MPTP mouse model, substantia nigra cytosol; 30 mg/kg).
For COC(=O)Cn1c2ccc([N+](=O)[O-])cc2c(=O)n1Cc1ccccc1, the IC50 was > 10 µM (Leishmania amazonensis; parasite growth, imaging; mouse Peritoneal macrophage; 48 h, intracellular, amastigote).
For O=C1Nc2ccc(Cl)cc2C1=Cc1ccc(-c2cccc(C(=O)NCC3CCNCC3)c2)o1 (mixture of isomers), the IC50 was 5.6 µM (Ancylostoma ceylanicum; motility; adult worms; 48 h).
With CCOC(=O)CNC(=O)CN1C(=O)S/C(=C\c2ccc(C)cc2)C1=O the IC50 was > 63 µM (Trypanosoma equiperdum; cell viability; IVM-t1; 72 h).
O=[N+]([O-])c1ccc(/C=N/N=C/c2ccccc2)o1 has an IC50 of 3.49 ± 1.89 µM (Trypanosoma equiperdum; parasite growth, CellTiter-Glo; IVM-t1 bloodstream form; 72 h).
With CCC(NC(=O)CN1C(=O)N/C(=C\c2ccc(C)cc2)C1=O)C(=O)OC (stereo not drawn) the IC50 was > 64 µM (Trypanosoma equiperdum; cell viability; IVM-t1; 72 h).
O=[N+]([O-])c1ccc(/C=N/N=C/c2ccc(Cl)cc2)o1 has an IC50 of 1.18 ± 0.17 µM (Trypanosoma equiperdum; parasite growth, CellTiter-Glo; IVM-t1 bloodstream form; 72 h).
The IC50 of NCCCn1c2ccc([N+](=O)[O-])cc2c(=O)n1Cc1ccccc1 is reported as 8 µM (Leishmania amazonensis; parasite growth, imaging; mouse Peritoneal macrophage; 48 h, intracellular, amastigote).
O=[N+]([O-])/C(Br)=C/c1ccco1 has an IC50 of 1.9 µM (Leishmania amazonensis, L. infantum, L. braziliensis; promastigotes; mean of three species).
The IC50 of CCOC(=O)C(C)NC(=O)CN1C(=O)N/C(=C\c2ccc(C)cc2)C1=O (stereo not drawn) is reported as > 57 µM (Trypanosoma equiperdum; cell viability; IVM-t1; 72 h).
With O=[N+]([O-])c1ccc(/C=N/N=C/c2ccc(O)cc2)o1 the IC50 was 5.01 ± 1.18 µM (Trypanosoma equiperdum; parasite growth, CellTiter-Glo; IVM-t1 bloodstream form; 72 h).
COC1C=COC2(C)Oc3c(C)c(O)c4c(c3C2=O)C2=NC3(CCN(CC(C)C)CC3)NC2=C(NC(=O)C(C)=CC=CC(C)C(O)C(C)C(O)C(C)C(OC(=O)Nc2cscn2)C1C)C4=O (stereo not drawn) gave an IC50 of 0.05 µM (Mycobacteroides abscessus; ATCC 19977; 50% human serum).
O=[N+]([O-])/C=C/c1ccc(Br)o1 has an IC50 of 2.1 µM (Leishmania amazonensis; parasite growth; 72 h, promastigote).
The IC50 of COC(=O)C1=CO[C@@H](C)[C@@H]2Cn3ccc4c5ccccc5nc-4c3C[C@H]12 is reported as 0.17 ± 0.03 µM (Plasmodium falciparum; parasite growth, [3H]-hypoxanthine incorporation; 3D7; 96 h).
With CN(C(=O)c1ccc2ncc(-c3ccc(C(F)(F)F)cc3)n2n1)c1ccc(C#N)cc1 the IC50 was < 0.16 µM (Plasmodium yoelii; liver schizont development, high-content imaging; HepG2-A16-CD81-EGFP).
The IC50 of Cc1ccc(/C=N/N=C/c2ccc([N+](=O)[O-])s2)cc1 is reported as 3.39 ± 0.44 µM (Trypanosoma equiperdum; parasite growth, CellTiter-Glo; IVM-t1 bloodstream form; 72 h).
The IC50 of CCN(CC)CC#CCNc1ccnc2cc(Cl)ccc12 is reported as 0.043 ± 0.005 µM (Plasmodium falciparum; parasite growth, SYBR Green I; 3D7; mean of experiments).
For O=c1c2cc([N+](=O)[O-])ccc2n(CCN2CCCCC2)n1Cc1ccccc1, the IC50 was 24.2 µM (Leishmania amazonensis; parasite growth, resazurin; 72 h, promastigote).
The IC50 of CC(C)=CCCC1(C)CC=NO1 (stereo not drawn) is reported as > 500 µM (Mycolicibacterium smegmatis; microbial growth).
For O=c1c2cc([N+](=O)[O-])ccc2n(CCN2CCCC2)n1Cc1ccccc1, the IC50 was 6.3 µM (Leishmania amazonensis; parasite growth, imaging; mouse Peritoneal macrophage; 48 h, intracellular, amastigote).
For Cc1ccc(/C=N/N=C/c2ccc([N+](=O)[O-])o2)cc1, the IC50 was 4.04 ± 0.53 µM (Trypanosoma equiperdum; parasite growth, CellTiter-Glo; IVM-t1 bloodstream form; 72 h).
For NCCn1c2ccc([N+](=O)[O-])cc2c(=O)n1Cc1ccccc1, the IC50 was 8.5 µM (Leishmania amazonensis; parasite growth, imaging; mouse Peritoneal macrophage; 48 h, intracellular, amastigote).
The IC50 of O=[N+]([O-])c1ccc(/C=N/N=C/c2ccc(Cl)cc2)s1 is reported as 1.23 ± 0.16 µM (Trypanosoma equiperdum; parasite growth, CellTiter-Glo; IVM-t1 bloodstream form; 72 h).
With C=CCn1c2ccc([N+](=O)[O-])cc2c(=O)n1Cc1ccccc1 the IC50 was 2.5 µM (Leishmania amazonensis; parasite growth, resazurin; 72 h, promastigote).
For COc1cc(CNC(=O)C[C@H](C)CCC=C(C)C)ccc1OCc1cn(-c2ccc(Cl)c(Cl)c2)nn1, the growth percent was 55% (MDA-MB-468 breast cancer cells; SRB; 10 µM, 48 h).

A few entries again:
O=[N+]([O-])c1ccc(/C=N/N=C/c2ccc(Cl)cc2)o1 has an IC50 of 1.18 ± 0.17 µM (Trypanosoma equiperdum; parasite growth, CellTiter-Glo; IVM-t1 bloodstream form; 72 h).
The IC50 of CC(C)=CCCC1(C)CC=NO1 (stereo not drawn) is reported as > 500 µM (Mycolicibacterium smegmatis; microbial growth).
For COC(=O)Cn1c2ccc([N+](=O)[O-])cc2c(=O)n1Cc1ccccc1, the IC50 was > 10 µM (Leishmania amazonensis; parasite growth, imaging; mouse Peritoneal macrophage; 48 h, intracellular, amastigote).
COC1C=COC2(C)Oc3c(C)c(O)c4c(c3C2=O)C2=NC3(CCN(CC(C)C)CC3)NC2=C(NC(=O)C(C)=CC=CC(C)C(O)C(C)C(O)C(C)C(OC(=O)Nc2cscn2)C1C)C4=O (stereo not drawn) gave an IC50 of 0.05 µM (Mycobacteroides abscessus; ATCC 19977; 50% human serum).
For NCCn1c2ccc([N+](=O)[O-])cc2c(=O)n1Cc1ccccc1, the IC50 was 8.5 µM (Leishmania amazonensis; parasite growth, imaging; mouse Peritoneal macrophage; 48 h, intracellular, amastigote).
The IC50 of CCOC(=O)C(C)NC(=O)CN1C(=O)N/C(=C\c2ccc(C)cc2)C1=O (stereo not drawn) is reported as > 57 µM (Trypanosoma equiperdum; cell viability; IVM-t1; 72 h).
